Results collected from several papers.
Compare with care: the assays were run in different laboratories. Several values in a cell are separate wells, animals, samples, runs or records. Numbers after ± are the reported error.
SEC14: SEC14 (Saccharomyces cerevisiae, UniProt P24280)
Sequence of UniProt P24280 (whole entry, looked up): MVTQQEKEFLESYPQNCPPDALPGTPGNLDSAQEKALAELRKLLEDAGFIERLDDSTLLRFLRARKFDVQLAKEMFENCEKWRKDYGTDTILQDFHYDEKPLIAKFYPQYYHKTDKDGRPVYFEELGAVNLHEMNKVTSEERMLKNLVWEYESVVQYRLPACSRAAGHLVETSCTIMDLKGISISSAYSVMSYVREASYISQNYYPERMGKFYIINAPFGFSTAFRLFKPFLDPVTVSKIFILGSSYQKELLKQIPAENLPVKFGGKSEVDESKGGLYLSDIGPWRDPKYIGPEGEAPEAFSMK
EGLN2: Prolyl hydroxylase EGLN2 (EGLN2, Homo sapiens, UniProt Q96KS0)
Sequence of UniProt Q96KS0 (whole entry, looked up): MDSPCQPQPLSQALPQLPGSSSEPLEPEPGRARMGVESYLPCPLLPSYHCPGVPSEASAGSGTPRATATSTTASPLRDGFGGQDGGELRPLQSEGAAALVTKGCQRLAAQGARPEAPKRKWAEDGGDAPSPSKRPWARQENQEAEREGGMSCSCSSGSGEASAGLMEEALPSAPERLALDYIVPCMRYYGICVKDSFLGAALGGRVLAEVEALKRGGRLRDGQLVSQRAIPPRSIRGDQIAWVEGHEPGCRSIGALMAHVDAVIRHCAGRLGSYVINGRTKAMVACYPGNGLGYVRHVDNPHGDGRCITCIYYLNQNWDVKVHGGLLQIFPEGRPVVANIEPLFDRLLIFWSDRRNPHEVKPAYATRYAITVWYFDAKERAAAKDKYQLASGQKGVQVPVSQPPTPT
PSMB7 in 20S proteasome: Proteasome subunit beta type-7, in 20S proteasome (PSMB7, Homo sapiens, UniProt Q99436)
Sequence of UniProt Q99436 (whole entry, looked up): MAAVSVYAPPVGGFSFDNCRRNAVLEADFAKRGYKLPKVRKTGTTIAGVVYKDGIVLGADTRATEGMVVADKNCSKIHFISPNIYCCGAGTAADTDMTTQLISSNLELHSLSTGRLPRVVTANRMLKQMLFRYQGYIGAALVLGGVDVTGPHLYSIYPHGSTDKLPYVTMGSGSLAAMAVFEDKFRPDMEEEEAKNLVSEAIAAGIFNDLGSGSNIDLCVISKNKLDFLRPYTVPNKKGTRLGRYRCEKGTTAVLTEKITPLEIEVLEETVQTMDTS
RPS6KA3 T493M C-terminal kinase domain: Ribosomal protein S6 kinase alpha-3, C-terminal kinase domain (RPS6KA3, Homo sapiens, UniProt P51812, T493M)
Sequence of UniProt P51812 (whole entry, unmodified, looked up): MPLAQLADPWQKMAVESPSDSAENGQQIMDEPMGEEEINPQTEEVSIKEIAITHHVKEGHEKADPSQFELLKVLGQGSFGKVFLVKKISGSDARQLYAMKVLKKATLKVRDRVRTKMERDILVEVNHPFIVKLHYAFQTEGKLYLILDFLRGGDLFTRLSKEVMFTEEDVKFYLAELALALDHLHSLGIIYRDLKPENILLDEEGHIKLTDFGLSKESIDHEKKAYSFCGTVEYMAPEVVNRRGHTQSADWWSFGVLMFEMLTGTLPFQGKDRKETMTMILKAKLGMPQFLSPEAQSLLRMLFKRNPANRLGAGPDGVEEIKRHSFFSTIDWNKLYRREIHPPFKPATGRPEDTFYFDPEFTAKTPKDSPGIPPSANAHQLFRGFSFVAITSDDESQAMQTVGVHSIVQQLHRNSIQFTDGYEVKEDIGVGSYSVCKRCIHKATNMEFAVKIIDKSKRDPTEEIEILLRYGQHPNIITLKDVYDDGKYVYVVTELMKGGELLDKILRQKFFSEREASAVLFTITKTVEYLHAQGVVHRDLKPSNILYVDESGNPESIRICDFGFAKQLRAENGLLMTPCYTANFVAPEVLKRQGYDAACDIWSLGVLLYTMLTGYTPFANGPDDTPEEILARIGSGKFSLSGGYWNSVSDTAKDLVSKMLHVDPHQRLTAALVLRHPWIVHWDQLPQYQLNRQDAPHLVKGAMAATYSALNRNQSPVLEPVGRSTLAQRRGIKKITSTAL
Seed linoleate 13S-lipoxygenase-1: Seed linoleate 13S-lipoxygenase-1 (Glycine max, UniProt P08170)
Sequence of UniProt P08170 (whole entry, looked up): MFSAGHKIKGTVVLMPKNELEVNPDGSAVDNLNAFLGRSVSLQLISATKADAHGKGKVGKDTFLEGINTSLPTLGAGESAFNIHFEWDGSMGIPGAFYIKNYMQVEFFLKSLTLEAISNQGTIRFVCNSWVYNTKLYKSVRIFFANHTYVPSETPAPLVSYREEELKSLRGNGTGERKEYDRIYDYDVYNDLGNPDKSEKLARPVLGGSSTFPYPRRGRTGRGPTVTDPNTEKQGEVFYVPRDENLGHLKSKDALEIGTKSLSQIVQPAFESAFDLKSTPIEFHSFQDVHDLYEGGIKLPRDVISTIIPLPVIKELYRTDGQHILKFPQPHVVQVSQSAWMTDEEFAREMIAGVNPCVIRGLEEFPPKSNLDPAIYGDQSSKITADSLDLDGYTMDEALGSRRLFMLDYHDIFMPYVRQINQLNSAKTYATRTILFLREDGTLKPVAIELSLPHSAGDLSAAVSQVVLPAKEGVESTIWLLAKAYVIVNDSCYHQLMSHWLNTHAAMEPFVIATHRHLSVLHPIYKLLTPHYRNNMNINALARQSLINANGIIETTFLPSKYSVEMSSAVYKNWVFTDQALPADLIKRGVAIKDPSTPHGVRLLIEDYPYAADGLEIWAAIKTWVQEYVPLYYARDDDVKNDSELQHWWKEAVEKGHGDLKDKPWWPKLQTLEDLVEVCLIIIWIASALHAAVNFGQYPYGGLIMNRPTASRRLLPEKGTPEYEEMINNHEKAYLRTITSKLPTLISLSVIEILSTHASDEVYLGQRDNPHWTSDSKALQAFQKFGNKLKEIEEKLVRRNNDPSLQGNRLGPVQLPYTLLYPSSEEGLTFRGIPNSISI
CD38: ADP-ribosyl cyclase/cyclic ADP-ribose hydrolase 1 (CD38, Homo sapiens, UniProt P28907)
Sequence of UniProt P28907 (whole entry, looked up): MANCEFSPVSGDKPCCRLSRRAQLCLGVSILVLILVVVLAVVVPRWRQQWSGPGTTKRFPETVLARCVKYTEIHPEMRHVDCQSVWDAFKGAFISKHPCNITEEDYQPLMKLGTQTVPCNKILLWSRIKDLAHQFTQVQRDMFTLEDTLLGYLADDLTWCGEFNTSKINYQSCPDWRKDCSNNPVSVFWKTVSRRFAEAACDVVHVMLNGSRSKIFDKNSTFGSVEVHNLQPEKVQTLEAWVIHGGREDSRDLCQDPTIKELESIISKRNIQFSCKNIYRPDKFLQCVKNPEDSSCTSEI
Sequence of UniProt P21761 (whole entry, looked up): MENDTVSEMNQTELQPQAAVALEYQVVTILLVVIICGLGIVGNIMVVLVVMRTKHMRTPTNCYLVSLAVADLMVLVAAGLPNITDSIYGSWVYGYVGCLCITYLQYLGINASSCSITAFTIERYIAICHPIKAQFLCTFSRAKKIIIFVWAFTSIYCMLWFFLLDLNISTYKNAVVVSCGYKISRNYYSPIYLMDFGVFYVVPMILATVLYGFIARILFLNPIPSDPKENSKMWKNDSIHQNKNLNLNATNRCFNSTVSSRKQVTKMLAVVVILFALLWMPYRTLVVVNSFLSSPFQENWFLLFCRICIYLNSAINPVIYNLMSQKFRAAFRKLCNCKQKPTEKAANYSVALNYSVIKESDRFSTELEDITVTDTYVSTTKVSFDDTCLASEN
Sequence of UniProt P07550 (whole entry, looked up): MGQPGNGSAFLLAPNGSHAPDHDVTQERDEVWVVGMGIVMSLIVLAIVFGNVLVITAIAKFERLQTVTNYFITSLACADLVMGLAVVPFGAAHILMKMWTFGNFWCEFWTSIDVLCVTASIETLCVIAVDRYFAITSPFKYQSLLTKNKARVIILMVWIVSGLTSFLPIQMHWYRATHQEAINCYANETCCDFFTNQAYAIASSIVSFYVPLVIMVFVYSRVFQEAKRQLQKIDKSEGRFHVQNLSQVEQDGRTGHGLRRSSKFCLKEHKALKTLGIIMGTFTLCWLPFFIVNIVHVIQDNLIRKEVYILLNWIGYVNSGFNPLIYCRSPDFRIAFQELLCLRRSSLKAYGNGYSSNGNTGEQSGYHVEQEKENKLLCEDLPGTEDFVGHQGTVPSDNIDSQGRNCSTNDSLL
Sequence of UniProt P39051 (whole entry, looked up): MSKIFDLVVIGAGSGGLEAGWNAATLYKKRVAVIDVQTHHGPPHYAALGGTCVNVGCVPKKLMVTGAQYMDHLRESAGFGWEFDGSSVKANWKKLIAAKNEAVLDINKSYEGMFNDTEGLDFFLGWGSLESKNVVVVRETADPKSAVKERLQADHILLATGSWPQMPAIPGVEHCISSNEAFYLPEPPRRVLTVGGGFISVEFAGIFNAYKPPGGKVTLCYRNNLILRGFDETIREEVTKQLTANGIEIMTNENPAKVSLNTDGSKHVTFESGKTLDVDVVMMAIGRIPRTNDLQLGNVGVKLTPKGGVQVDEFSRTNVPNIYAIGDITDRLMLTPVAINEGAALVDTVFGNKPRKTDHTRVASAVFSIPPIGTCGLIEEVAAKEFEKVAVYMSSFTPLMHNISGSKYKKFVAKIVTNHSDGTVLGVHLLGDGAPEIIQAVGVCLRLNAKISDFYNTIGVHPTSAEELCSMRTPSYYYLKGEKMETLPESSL
Sequence of UniProt Q05BQ5 (whole entry, looked up): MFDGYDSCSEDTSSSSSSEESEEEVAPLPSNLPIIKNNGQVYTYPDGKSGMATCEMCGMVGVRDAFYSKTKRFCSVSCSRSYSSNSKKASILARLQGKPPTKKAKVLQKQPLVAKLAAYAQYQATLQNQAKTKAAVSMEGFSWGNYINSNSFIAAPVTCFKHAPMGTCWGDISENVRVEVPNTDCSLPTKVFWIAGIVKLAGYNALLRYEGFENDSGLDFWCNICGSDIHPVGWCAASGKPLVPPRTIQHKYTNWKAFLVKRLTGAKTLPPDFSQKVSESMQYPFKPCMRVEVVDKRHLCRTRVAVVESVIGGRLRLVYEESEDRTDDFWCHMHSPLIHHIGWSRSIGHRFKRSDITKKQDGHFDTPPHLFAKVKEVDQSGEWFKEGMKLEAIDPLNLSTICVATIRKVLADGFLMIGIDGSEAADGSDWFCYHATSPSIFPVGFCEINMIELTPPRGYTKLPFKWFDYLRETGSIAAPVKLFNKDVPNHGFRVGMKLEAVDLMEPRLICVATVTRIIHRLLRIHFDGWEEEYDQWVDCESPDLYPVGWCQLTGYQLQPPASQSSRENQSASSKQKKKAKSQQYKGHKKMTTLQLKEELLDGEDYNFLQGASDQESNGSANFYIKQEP

CC(=O)NCCN(CC(=O)NCCN(CC(=O)NCCN(CC(=O)NCCC(N)=O)C(=O)C[C@@H](N)Cc1ccccc1)C(=O)C[C@@H](N)Cc1ccccc1)C(=O)C[C@@H](N)CCCNC(=N)N — IC50 (HIV-1 TAR RNA; Tat/TAR complex displacement, FRET; room temperature, with: 10 nM Tat/TAR complex): 22.8 ± 0.8 µM
CN(C)c1ccc2c(c1)C(=O)N(C(C(=O)O)C(C)(C)S)C2=O (centres unmarked) — IC50 (Metallo-beta-lactamase type 2 (Serratia marcescens, UniProt P52699); enzyme activity, inhibitor; pH 7.0, with: chromacef 25 µM): > 50 µM
O=C(c1cc([N+](=O)[O-])ccc1Cl)N1CCN(c2cccc(Cl)c2)CC1 — IC50 (SEC14; enzyme activity, inhibitor, radiometric): > 100 µM
O=c1c(-c2ccccc2)c[nH]n1-c1ccccn1 — IC50 (EGLN2; enzyme activity, inhibitor, europium VBC binding; 10 µM FeSO4, 2 mM ascorbate, with: 20 µM 2-oxoglutarate): 5.4 µM
C=C(NC(=O)C(=C)NC(=O)c1csc(C2=NC3c4csc(n4)C4NC(=O)c5csc(n5)C(C(C)(O)C(C)O)NC(=O)C5CSC(=N5)C(=CC)NC(=O)C(C(C)O)NC(=O)c5csc(n5)C3(CC2)NC(=O)C(CC(N)=O)NC(=O)C(=C)NC(=O)C(C)NC(=O)C(C(C)CC)NC2C=Cc3c(C(C)O)cc(nc3C2O)C(=O)OC4C)n1)C(N)=O (centres unmarked) — IC50 (PSMB7 in 20S proteasome; trypsin-like activity, inhibitor; purified 20S proteasome; 15 min preincubation, 37 °C, with: Boc-Leu-Arg-Arg-AMC substrate): 0.38 ± 0.06 µM
N#C/C(=C\c1cccc(C(N)=O)c1)C(N)=O — IC50 (RPS6KA3 T493M C-terminal kinase domain; kinase activity, inhibitor; with: 0.1 mM ATP): 6.8 µM
COc1cc(-c2nc3ccc(C(=O)NCCCN4CCN(c5ccccn5)CC4)cc3n2C2CCC2)cc(OC)c1OC — IC50 (ACVR1 (Homo sapiens, UniProt Q04771, R206H); binding, NanoBRET; HEK293): 0.71 µM
CCN(CC)c1ccc(/C=C/C(=O)C(c2ccccc2)c2ccccc2)cc1 — IC50 (Seed linoleate 13S-lipoxygenase-1; enzyme activity, inhibitor, absorbance): 45.5 µM
C=CC(=O)Nc1ccc(-c2c(-c3ccc(OC)cc3)c3c(N)ncnc3n2C)cc1 — IC50 (FGFR2 (Homo sapiens, UniProt P21802); Caliper mobility shift; 30 min preincubation, with: 100 µM ATP): 0.01 µM
COc1cc(C(=O)NC2CCC(N3CCC[C@@H](C)C3)CC2)c(F)cc1Nc1ncc2c(n1)N([C@H]1CCCC1(F)F)CC(F)(F)C(=O)N2C (some centres unmarked) — IC50 (PLK1 (Homo sapiens, UniProt P53350); enzyme activity, inhibitor, ADP detection): 6.83e-05 µM
O=C(c1ccccc1Br)N1CCN(c2ccc(F)cc2)CC1 — IC50 (SEC14; enzyme activity, inhibitor, radiometric): > 100 µM
CC1OC(Oc2c(-c3ccc(O)cc3)oc3cc(O)cc(O)c3c2=O)C(OC(=O)C=Cc2ccc(O)cc2)C(O)C1OC(=O)C=Cc1ccc(O)cc1 (centres unmarked) — IC50 (CCR9 (Homo sapiens, UniProt P51686); calcium flux, antagonist; 293FT GCaMP6 transfected): > 10 µM
C#CCO[C@H](C(=O)O)[C@H](N)C(=O)O (racemic) — IC50 (SLC1A3 (Homo sapiens, UniProt P43003); transporter uptake, inhibitor, radiometric): 6.9 µM
CNC(=O)C1CCN(c2ccccc2NC(=O)c2ccc(-c3cccc(O)c3)c(C)c2)CC1 — IC50 (EPHA4 (Homo sapiens, UniProt P54764); target engagement in cells, BRET): 11.9 µM
Cc1cnc(C(=O)N[C@@H](Cc2cn(C)cn2)C(=O)N2CCC[C@H]2C(N)=O)cn1 — IC50 (Thyrotropin-releasing hormone receptor (Mus musculus, UniProt P21761); ligand displacement, radioligand): > 50 µM
N#C/C(=C\c1cccc(-c2ccncc2)c1)C(N)=O — IC50 (RPS6KA3 T493M C-terminal kinase domain; kinase activity, inhibitor; with: 0.1 mM ATP): 0.43 µM
COC(=O)N1CCC(CN2CCC(CNC(=O)c3cccc4[nH]c(C(C)C)nc34)CC2)CC1 — IC50 (SLC47A2 (Homo sapiens, UniProt Q86VL8); transporter uptake, inhibitor): 4.84 µM
Cc1ccc(NCc2cn(-c3ccc(S(N)(=O)=O)cc3)nc2-c2ccc(OCc3ccccc3)cc2)cc1 — IC50 (PTGS1 (Homo sapiens, UniProt P23219); enzyme activity, inhibitor, absorbance): 134 µM
O=C1N=C(O)SC1=Cc1ccc(-c2cccc(C(F)(F)F)c2)o1 — IC50 (CD38; hydrolase activity, fluorometric; with: ε-NAD+ substrate): > 100 µM
OC[C@@H]1[C@@H](O)[C@H](O)[C@@H](O)[C@H]2O[C@@H]12 — IC50 (Beta-glucosidase (GBA2, Homo sapiens, UniProt Q9HCG7); enzyme activity, inhibitor; pH 5.8, with preincubation): > 100 µM
CN(C)C(=O)c1cc2nc(-c3cc(-c4cnn(C5CCNCC5)c4)cnc3N)oc2cc1O — IC50 (JAK2 (Homo sapiens, UniProt O60674); enzyme activity, inhibitor, TR-FRET): 5.5 µM
Fc1ccc(Nc2nc(NC3CCCCC3)c3ccccc3n2)cc1F — IC50 (ADRB2 (Homo sapiens, UniProt P07550); enzyme activity, inhibitor): 18 µM
[H]/N=C1/NC(=O)/C(=C\c2cccc(OC)c2OC)S1 — IC50 (Urea transporter 2, UT-A2 isoform (SLC14A2, Homo sapiens, UniProt Q15849); urea transport, inhibitor; HEK293 transfected with wild-type SLC14A2): 6.38 ± 0.54 µM
Cc1nnc(-n2[nH]cc(-c3cccnc3)c2=O)s1 — IC50 (EGLN2; enzyme activity, inhibitor, europium VBC binding; 10 µM FeSO4, 2 mM ascorbate, with: 20 µM 2-oxoglutarate): 4.3 µM
CCn1c(SC(C)C(=O)NCc2ccccc2)nnc1C1CCN(C(=O)Nc2ccccc2)CC1 (centres unmarked) — IC50 (Seed linoleate 13S-lipoxygenase-1; enzyme activity, inhibitor): 6.75 µM and < 7 µM
CNC(=O)C1CCN(c2ccccc2NC(=O)c2ccc(-c3cc(O)ccc3C)c(OC)c2)CC1 — IC50 (YES1 (Homo sapiens, UniProt P07947); target engagement, NanoBRET; intact cells): > 50 µM
CC(C)C[C@H](NC(=O)[C@@H](Cc1c[nH]c2ccccc12)NC(=O)[C@H](Cc1c[nH]cn1)NC(=O)[C@H](CO)NC(=O)[C@H](Cc1c[nH]c2ccccc12)NC(=O)[C@H](Cc1c[nH]cn1)NC(=O)[C@@H]1CCC(=O)N1)C(=O)N[C@@H](CCCNC(=N)N)C(=O)N1CCC[C@H]1C(=O)NCC(N)=O — IC50 (Gonadotropin-releasing hormone receptor (Rattus norvegicus, UniProt P30969); binding, radioligand displacement; WPE-1-NB26-3 expressing Gonadotropin-releasing hormone receptor, whole cells; with: radioiodinated GnRH analogue): 0.0003 ± 0.0001 µM
N#Cc1c(O)nsc1Nc1ccccc1 — IC50 (SARM1 (Homo sapiens, UniProt Q6SZW1); NADase activity, inhibitor, refers to: ADPR; SAM-TIR domain, wild type): 4 µM
C=C(NC(=O)C(=C)NC(=O)c1csc(C2=NC3c4csc(n4)C4NC(=O)c5csc(n5)C(C(C)(O)C(C)O)NC(=O)C5CSC(=N5)C(=CC)NC(=O)C(C(C)O)NC(=O)c5csc(n5)C3(CC2)NC(=O)C(C)NC(=O)C(=C)NC(=O)CNC(=O)C(C(C)CC)NC2C=Cc3c(C(C)O)cc(nc3C2O)C(=O)OC4C)n1)C(N)=O (centres unmarked) — IC50 (PSMB7 in 20S proteasome; trypsin-like activity, inhibitor; purified human 20S proteasome; 37 °C, 15 min preincubation, with: Boc-Leu-Arg-Arg-AMC): 1.2 ± 0.1 µM
O=C1C[C@H](c2ccc(O)c(O)c2)c2c(cc(O)c3c2O[C@H](c2ccc(O)c(O)c2)[C@H](O)C3)O1 — IC50 (DPP4 (Sus scrofa, UniProt P22411); enzyme activity, inhibitor, absorbance): 181 µM
Cc1ccc(-c2cc(C(=O)NCc3ccco3)c3cc(Br)ccc3n2)o1 — IC50 (TPR (Trypanosoma brucei brucei, UniProt P39051); inhibitor, DTNB-coupled colourimetric; with: substrate at Km): > 100 µM
CC1=CC(C)(C)NC(Nc2nc(-c3ccccc3)c3ccccc3n2)=N1 — IC50 (CD38; enzyme activity, inhibitor, fluorescence): 23 µM
C=C(NC(=O)C(=C)NC(=O)c1csc(C2=NC3c4csc(n4)C4NC(=O)c5csc(n5)C(C(C)(O)C(C)O)NC(=O)C5CSC(=N5)C(=CC)NC(=O)C(C(C)O)NC(=O)c5csc(n5)C3(CC2)NC(=O)C(CO)NC(=O)C(=C)NC(=O)C(C)NC(=O)C(C(C)CC)NC2C=Cc3c(C(C)O)cc(nc3C2O)C(=O)OC4C)n1)C(N)=O (centres unmarked) — IC50 (PSMB7 in 20S proteasome; trypsin-like activity, inhibitor; purified 20S proteasome; 15 min preincubation, 37 °C, with: Boc-Leu-Arg-Arg-AMC substrate): 0.39 ± 0.03 µM
COc1ccc(NC(=O)N2CCCCN3[C@H](CN(C)C)[C@H](c4ccc(C#Cc5ccccc5)cc4)[C@@H]3C2)cc1 — IC50 (Phenylalanine--tRNA ligase alpha subunit (Homo sapiens, UniProt Q9Y285); enzyme activity, inhibitor, absorbance): 18 µM
CC(C)(C)NCCCNC(=O)c1ccnc(Br)c1 — IC50 (MBT domain-containing protein 1 (Homo sapiens, UniProt Q05BQ5); methyl-lysine reader binding, inhibitor, AlphaScreen): > 100 µM

Excerpt of the above:
COc1ccc(NC(=O)N2CCCCN3[C@H](CN(C)C)[C@H](c4ccc(C#Cc5ccccc5)cc4)[C@@H]3C2)cc1 — IC50 (Phenylalanine--tRNA ligase alpha subunit (Homo sapiens, UniProt Q9Y285); enzyme activity, inhibitor, absorbance): 18 µM
CC(C)(C)NCCCNC(=O)c1ccnc(Br)c1 — IC50 (MBT domain-containing protein 1 (Homo sapiens, UniProt Q05BQ5); methyl-lysine reader binding, inhibitor, AlphaScreen): > 100 µM
